{"data": "Measured values gathered from unrelated publications", "note": "Each numbered part is a random draw from the data of one study; scales do not carry over between parts.", "sequence of UniProt Q96D53 (whole entry, looked up)": "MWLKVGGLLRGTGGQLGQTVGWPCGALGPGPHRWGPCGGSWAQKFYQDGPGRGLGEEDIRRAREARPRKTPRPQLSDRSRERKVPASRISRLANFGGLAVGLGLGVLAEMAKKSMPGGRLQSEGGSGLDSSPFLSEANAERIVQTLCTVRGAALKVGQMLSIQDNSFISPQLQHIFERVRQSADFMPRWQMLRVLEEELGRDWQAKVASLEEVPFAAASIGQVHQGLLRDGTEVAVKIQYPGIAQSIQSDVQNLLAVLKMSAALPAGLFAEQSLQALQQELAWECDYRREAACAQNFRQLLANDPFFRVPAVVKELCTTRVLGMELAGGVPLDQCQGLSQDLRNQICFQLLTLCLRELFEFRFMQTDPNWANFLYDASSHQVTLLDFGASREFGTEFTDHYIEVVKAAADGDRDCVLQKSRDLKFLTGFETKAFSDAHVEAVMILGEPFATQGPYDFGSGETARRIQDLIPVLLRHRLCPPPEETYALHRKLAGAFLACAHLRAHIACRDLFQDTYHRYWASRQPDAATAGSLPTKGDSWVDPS", "sequence of UniProt Q6XUX3 (whole entry, looked up)": "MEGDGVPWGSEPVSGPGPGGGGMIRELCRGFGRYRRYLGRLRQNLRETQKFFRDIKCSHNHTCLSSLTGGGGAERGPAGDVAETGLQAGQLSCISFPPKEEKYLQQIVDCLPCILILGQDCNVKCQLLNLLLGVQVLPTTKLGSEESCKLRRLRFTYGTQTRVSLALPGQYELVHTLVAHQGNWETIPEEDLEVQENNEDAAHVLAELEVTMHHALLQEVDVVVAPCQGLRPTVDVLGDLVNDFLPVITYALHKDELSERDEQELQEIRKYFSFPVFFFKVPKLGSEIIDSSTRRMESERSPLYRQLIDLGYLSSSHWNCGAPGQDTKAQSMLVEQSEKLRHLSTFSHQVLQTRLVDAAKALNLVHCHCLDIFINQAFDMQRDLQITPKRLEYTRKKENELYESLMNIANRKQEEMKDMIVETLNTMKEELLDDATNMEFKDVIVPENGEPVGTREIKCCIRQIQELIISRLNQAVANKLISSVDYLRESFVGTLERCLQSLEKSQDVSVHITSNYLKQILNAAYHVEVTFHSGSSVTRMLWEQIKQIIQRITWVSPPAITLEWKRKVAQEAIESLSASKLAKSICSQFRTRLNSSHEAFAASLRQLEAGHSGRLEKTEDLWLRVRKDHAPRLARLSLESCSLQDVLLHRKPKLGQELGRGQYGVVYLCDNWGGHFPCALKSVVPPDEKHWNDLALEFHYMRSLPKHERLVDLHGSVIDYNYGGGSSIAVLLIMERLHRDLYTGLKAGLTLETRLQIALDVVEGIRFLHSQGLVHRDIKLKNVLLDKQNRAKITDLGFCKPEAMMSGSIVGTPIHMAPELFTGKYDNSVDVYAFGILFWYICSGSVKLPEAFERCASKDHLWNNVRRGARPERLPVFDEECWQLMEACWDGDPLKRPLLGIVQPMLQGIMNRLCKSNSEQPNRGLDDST", "sequence of UniProt Q02750 (whole entry, looked up)": "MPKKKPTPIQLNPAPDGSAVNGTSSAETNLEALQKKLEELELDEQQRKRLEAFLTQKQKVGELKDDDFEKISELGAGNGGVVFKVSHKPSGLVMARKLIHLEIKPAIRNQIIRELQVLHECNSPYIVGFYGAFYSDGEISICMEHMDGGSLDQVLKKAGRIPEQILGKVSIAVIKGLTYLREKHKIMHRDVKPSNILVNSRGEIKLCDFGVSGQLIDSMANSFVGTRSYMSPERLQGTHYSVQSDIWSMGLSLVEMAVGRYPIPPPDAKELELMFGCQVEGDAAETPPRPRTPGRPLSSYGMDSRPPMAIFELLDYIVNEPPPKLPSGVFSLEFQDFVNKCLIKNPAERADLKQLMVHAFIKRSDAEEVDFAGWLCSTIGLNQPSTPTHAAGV"}
{"data": "Set 1", "Compound": "Cc1ccc(NC(=O)c2ccnc(C(F)(F)F)c2)cc1-c1cc(OCCO)nc(N2CCOCC2)c1", "tested at": "1 µM"}
{"target": "COQ8B (Homo sapiens, UniProt Q96D53)", "assay": "competitive binding panel, item: ADCK4", "how to read": "reference: vehicle", "remaining binding": "100%"}
{"target": "MAP2K1 (Homo sapiens, UniProt Q02750)", "assay": "competitive binding, scanMAX", "conditions": "MEK1, 1000 nM", "remaining binding": "86%"}
{"target": "LATS1 (Homo sapiens, UniProt O95835)", "assay": "competitive binding panel", "how to read": "reference: vehicle", "remaining binding": "94%"}
{"target": "RIPK2 (Homo sapiens, UniProt O43353)", "assay": "competitive binding panel", "how to read": "reference: vehicle", "remaining binding": "63%"}
{"target": "STK32A (Homo sapiens, UniProt Q8WU08)", "assay": "competitive binding panel, item: YANK1", "how to read": "reference: vehicle", "remaining binding": "90%"}
{"target": "CDK2 (Homo sapiens, UniProt P24941)", "assay": "competitive binding panel", "how to read": "reference: vehicle", "remaining binding": "100%"}
{"target": "ULK2 (Homo sapiens, UniProt Q8IYT8)", "assay": "competitive binding panel", "how to read": "reference: vehicle", "remaining binding": "100%"}
{"target": "ABL1 (Homo sapiens, UniProt P00519, H396P)", "assay": "competitive binding panel", "how to read": "reference: vehicle", "remaining binding": "100%"}
{"data": "Set 2", "target": "DNA polymerase theta, ATPase domain (POLQ, Homo sapiens, UniProt O75417)", "read-out": "enzyme activity", "mode": "inhibitor", "tested at": "77 µM", "reference": "untreated", "sequence of UniProt O75417 (whole entry, unmodified, looked up)": "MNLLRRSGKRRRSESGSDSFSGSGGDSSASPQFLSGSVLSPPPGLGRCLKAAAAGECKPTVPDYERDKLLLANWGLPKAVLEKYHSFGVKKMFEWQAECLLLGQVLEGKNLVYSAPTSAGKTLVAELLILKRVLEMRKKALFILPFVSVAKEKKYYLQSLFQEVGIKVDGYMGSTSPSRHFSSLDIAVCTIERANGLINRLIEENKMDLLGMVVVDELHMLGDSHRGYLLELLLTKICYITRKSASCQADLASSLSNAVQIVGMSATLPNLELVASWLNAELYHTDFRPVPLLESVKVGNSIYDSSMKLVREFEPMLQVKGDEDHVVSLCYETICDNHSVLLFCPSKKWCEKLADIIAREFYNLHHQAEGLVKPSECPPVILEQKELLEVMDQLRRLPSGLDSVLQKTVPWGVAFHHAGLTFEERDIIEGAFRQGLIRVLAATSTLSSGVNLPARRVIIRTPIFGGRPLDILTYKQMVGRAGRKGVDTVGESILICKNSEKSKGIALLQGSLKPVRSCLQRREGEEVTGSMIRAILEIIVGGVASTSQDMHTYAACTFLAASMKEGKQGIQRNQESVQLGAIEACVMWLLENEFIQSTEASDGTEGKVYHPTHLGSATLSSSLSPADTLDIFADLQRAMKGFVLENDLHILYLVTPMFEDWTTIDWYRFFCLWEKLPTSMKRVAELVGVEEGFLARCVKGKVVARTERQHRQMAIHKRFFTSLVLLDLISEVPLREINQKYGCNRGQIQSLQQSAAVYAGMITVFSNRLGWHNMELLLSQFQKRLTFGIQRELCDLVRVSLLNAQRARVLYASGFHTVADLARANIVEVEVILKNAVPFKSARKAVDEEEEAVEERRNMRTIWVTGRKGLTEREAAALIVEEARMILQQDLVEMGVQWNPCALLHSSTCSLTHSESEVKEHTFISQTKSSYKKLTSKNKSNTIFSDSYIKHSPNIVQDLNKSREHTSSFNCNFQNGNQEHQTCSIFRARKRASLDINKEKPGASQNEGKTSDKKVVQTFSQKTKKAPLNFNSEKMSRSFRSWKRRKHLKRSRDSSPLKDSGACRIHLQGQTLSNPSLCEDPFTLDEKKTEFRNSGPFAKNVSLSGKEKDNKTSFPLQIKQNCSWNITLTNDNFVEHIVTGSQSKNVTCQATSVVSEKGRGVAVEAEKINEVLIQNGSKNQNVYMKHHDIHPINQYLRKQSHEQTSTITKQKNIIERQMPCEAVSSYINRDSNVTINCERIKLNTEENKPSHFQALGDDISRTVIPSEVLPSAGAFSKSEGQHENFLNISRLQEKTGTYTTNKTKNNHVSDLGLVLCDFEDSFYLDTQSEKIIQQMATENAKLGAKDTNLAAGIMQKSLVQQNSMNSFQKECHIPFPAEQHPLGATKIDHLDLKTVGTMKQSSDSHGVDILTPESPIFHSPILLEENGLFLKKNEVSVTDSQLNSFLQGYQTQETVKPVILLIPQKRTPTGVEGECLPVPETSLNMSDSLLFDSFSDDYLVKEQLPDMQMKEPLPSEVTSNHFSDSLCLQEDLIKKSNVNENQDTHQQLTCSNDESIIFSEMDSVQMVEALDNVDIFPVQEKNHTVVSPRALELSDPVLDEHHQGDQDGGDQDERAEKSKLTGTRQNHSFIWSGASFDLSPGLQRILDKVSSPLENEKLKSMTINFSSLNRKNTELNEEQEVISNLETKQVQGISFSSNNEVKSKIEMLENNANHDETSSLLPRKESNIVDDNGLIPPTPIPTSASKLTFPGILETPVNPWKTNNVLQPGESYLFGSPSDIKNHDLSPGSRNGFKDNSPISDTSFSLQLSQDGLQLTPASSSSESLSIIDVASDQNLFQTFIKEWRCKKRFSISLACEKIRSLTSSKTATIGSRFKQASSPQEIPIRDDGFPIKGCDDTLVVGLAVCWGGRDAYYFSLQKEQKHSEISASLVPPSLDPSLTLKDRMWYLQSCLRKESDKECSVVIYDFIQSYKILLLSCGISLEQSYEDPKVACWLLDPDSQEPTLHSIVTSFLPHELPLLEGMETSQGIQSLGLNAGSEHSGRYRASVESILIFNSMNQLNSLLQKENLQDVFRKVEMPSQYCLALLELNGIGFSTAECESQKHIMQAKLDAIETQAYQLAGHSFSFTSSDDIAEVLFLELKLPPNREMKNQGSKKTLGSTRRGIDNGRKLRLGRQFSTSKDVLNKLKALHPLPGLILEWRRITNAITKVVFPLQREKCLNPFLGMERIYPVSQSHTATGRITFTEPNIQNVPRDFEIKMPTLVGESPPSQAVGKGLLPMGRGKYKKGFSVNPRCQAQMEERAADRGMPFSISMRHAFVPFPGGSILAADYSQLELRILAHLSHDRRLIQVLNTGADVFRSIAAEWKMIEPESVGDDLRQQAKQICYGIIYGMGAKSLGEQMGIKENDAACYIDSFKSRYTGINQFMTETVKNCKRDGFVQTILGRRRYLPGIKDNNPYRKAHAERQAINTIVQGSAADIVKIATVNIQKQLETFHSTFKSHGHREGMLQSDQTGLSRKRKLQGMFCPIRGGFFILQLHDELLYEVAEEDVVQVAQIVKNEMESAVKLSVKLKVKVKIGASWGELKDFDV"}
{"Structure (SMILES)": "CCN(CC)CCCC(C)Nc1ccnc2cc(Cl)ccc12 (stereo not shown)", "remaining activity [%]": 101}
{"Structure (SMILES)": "N[C@@H]1CONC1=O", "remaining activity [%]": 101}
{"Structure (SMILES)": "Clc1ccc2c(N3CCN(CCCN4CCN(c5ccnc6cc(Cl)ccc56)CC4)CC3)ccnc2c1", "remaining activity [%]": 92.5}
{"Structure (SMILES)": "CC(C)CC(=O)N[C@H](C(=O)N[C@H](C(=O)N[C@@H](CC(C)C)[C@@H](O)CC(=O)N[C@@H](C)C(=O)N[C@@H](CC(C)C)[C@@H](O)CC(=O)O)C(C)C)C(C)C", "remaining activity [%]": 95.6}
{"Structure (SMILES)": "C[C@@H](Oc1cc(-n2cnc3ccc(CN4CCN(C)CC4)cc32)sc1C(N)=O)c1ccccc1C(F)(F)F", "remaining activity [%]": 98.1}
{"Structure (SMILES)": "Cc1cccc(CN2CCN(C(c3ccccc3)c3ccc(Cl)cc3)CC2)c1 (stereo not shown)", "remaining activity [%]": 101}
{"Structure (SMILES)": "CCCC(=O)Nc1ncnc2c1ncn2[C@@H]1O[C@@H]2COP(=O)(O)O[C@H]2[C@H]1OC(=O)CCC", "remaining activity [%]": 109}
{"Structure (SMILES)": "C[C@H](CCC(=O)NCC(=O)O)[C@H]1CC[C@H]2[C@@H]3[C@H](O)C[C@@H]4C[C@H](O)CC[C@]4(C)[C@H]3C[C@H](O)[C@]12C", "remaining activity [%]": 96.6}
{"data": "Set 3", "target": "Calcium/calmodulin-dependent protein kinase type II subunit alpha (CAMK2A, Homo sapiens, UniProt Q9UQM7)", "read-out": "enzyme activity", "mode": "inhibitor", "tested at": "10 µM", "sequence of UniProt Q9UQM7 (whole entry, looked up)": "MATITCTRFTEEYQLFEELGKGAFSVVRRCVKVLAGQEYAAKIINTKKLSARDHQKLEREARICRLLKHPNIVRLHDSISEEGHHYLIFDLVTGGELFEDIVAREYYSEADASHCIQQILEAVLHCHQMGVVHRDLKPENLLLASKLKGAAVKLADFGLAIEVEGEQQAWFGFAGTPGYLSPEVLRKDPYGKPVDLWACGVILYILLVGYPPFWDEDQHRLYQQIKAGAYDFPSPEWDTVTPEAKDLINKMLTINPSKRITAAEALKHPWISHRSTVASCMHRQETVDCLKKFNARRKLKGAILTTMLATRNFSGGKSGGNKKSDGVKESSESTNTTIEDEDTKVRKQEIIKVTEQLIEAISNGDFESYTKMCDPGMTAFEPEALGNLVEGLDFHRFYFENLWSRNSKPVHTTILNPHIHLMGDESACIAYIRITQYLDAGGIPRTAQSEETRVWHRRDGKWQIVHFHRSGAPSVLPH"}
{"Compound": "C[C@@]12C[C@@]3(O)O[C@@H](O1)[C@]1(COC(=O)c4ccc(O)cc4)[C@H]3C[C@@]12O[C@@H]1O[C@H](COC(=O)c2ccccc2)[C@@H](O)[C@H](O)[C@H]1O", "inhibition [%]": -23}
{"Compound": "CC(C)=CCc1cc2ccc(=O)oc2cc1O", "inhibition [%]": -34}
{"Compound": "CC1=C(CC(=O)O)c2cc(F)ccc2/C1=C\\c1ccc([S+](C)[O-])cc1 (stereo not shown)", "inhibition [%]": 15}
{"Compound": "COC[C@H]1C[C@@H](c2ncc(-c3ccc4c(c3)COc3cc5c(ccc6[nH]c([C@@H]7CC[C@H](C)N7C(=O)[C@@H](NC(=O)OC)C(C)C)nc65)cc3-4)[nH]2)N(C(=O)[C@H](NC(=O)OC)c2ccccc2)C1", "inhibition [%]": -13}
{"Compound": "O=c1[nH]c(=O)c2nccnc2[nH]1", "inhibition [%]": 15}
{"Compound": "O=C(O)Cc1cc(O)ccc1O", "inhibition [%]": -22}
{"Compound": "O=C1C[C@@H](c2ccc(O)cc2)Oc2cc(O[C@@H]3O[C@H](CO)[C@@H](O)[C@H](O)[C@H]3O)cc(O)c21", "inhibition [%]": 11}
{"Compound": "CC(C)NCC(O)c1ccc(O)c(O)c1 (stereo not shown)", "inhibition [%]": -13}
{"data": "Set 4", "SMILES": "CCS(=O)(=O)c1cc2cc(C[C@@](O)(CC(C)(C)c3ccc(F)cc3C(N)=O)C(F)(F)F)[nH]c2cn1", "read-out": "cell-free assay", "technique": "competition with immobilised ligand", "tested at": "1 µM"}
{"target": "CDK8 (Homo sapiens, UniProt P49336)", "remaining binding [%]": 100}
{"target": "Ribosomal protein S6 kinase alpha-3, C-terminal kinase domain (RPS6KA3, Homo sapiens, UniProt P51812)", "remaining binding [%]": 100}
{"target": "FLT1 (Homo sapiens, UniProt P17948)", "remaining binding [%]": 67}
{"target": "STK38L (Homo sapiens, UniProt Q9Y2H1)", "remaining binding [%]": 38}
{"target": "Tyrosine-protein kinase JAK3, JH1 (JAK3, Homo sapiens, UniProt P52333)", "remaining binding [%]": 76}
{"target": "PHKG1 (Homo sapiens, UniProt Q16816)", "remaining binding [%]": 67}
{"target": "MAP3K19 (Homo sapiens, UniProt Q56UN5)", "remaining binding [%]": 76}
{"target": "STK10 (Homo sapiens, UniProt O94804)", "remaining binding [%]": 100}
{"target": "GRK4 (Homo sapiens, UniProt P32298)", "remaining binding [%]": 100}
{"target": "Ribosomal protein S6 kinase alpha-6, C-terminal kinase domain (RPS6KA6, Homo sapiens, UniProt Q9UK32)", "remaining binding [%]": 0}
{"target": "Tyrosine-protein kinase ABL1, non-phosphorylated (ABL1, Homo sapiens, UniProt P00519, H396P)", "remaining binding [%]": 99}
{"target": "Aurora kinase C (AURKC, Homo sapiens, UniProt Q9UQB9)", "remaining binding [%]": 81}
{"target": "RIOK2 (Homo sapiens, UniProt Q9BVS4)", "remaining binding [%]": 95}
{"target": "PIK3CA (Homo sapiens, UniProt P42336, H1047Y)", "remaining binding [%]": 95}
{"target": "NEK10 (Homo sapiens, UniProt Q6ZWH5)", "remaining binding [%]": 88}
{"target": "DSTYK (Homo sapiens, UniProt Q6XUX3)", "remaining binding [%]": 100}
{"note": "A few entries again (set 4):"}
{"target": "CDK8 (Homo sapiens, UniProt P49336)", "remaining binding [%]": 100}
{"target": "Ribosomal protein S6 kinase alpha-3, C-terminal kinase domain (RPS6KA3, Homo sapiens, UniProt P51812)", "remaining binding [%]": 100}
{"target": "FLT1 (Homo sapiens, UniProt P17948)", "remaining binding [%]": 67}
{"target": "STK38L (Homo sapiens, UniProt Q9Y2H1)", "remaining binding [%]": 38}
{"target": "Tyrosine-protein kinase JAK3, JH1 (JAK3, Homo sapiens, UniProt P52333)", "remaining binding [%]": 76}
{"target": "PHKG1 (Homo sapiens, UniProt Q16816)", "remaining binding [%]": 67}
